# Published values pooled from the literature.
# Numbered parts are unrelated; each lists some results of a single study. Changes are numbered by the printed parent chain.

# Block 1 — method: DHFR PCA, deep sequencing; medium: yeast; together with: (+)-ABA 17 µM; relative to: wild-type fitted maximum; direction: higher = stronger binding
# Target: ABI1, truncated, D143A, DHFR fusion (Arabidopsis thaliana)
# Setting: methotrexate growth selection, single substitutions
# Starting sequence: PYL1, truncated, DHFR fusion (Arabidopsis thaliana); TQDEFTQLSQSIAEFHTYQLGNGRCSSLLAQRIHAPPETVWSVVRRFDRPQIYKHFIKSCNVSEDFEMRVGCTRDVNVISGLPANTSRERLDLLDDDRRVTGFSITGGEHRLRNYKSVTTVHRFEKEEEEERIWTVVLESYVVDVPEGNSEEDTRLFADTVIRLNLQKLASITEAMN
Substitution,relative binding score [%]
A175C,84.1
L20A,89.4
S42Y,44.6
S150I,20.6
S104F,7.08
E4M,84.5
R155I,81.1
D159T,30.2
S150Y,14.3
T160C,71.3
S150H,39.1
I57L,73.3
V136I,88.1

# Block 2 — method: RNA Bind-n-Seq; form: RNA; medium: in vitro; concentration: 200 nM; setting: whole 134-nt RNA, ends assumed; together with: 150 mM KCl; relative to: input library; direction: higher = stronger binding
# Target: Ras GTPase-activating protein-binding protein 1, full length (G3BP1, Homo sapiens, UniProt Q13283)
# Sequence of UniProt Q13283 (whole entry, looked up): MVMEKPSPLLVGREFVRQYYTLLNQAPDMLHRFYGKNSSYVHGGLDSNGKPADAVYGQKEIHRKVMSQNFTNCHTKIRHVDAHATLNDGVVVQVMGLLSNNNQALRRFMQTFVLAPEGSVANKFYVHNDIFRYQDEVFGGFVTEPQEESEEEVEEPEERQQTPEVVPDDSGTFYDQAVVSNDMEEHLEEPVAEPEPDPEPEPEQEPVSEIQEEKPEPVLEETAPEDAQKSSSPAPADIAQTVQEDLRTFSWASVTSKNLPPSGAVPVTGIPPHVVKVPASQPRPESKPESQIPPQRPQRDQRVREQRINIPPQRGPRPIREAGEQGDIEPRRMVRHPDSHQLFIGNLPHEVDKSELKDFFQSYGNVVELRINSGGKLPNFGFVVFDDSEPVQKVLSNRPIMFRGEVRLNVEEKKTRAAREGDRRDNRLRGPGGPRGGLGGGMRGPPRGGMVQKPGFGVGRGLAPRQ
Sequence,log2 enrichment
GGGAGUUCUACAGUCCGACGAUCGUCCUGUGCUACACAUCGUAUGUACCGAAUCGGGUUUUUGGUUUUUGGGUUUUUGGGGAAAGUAUUAUGUUACGCCGUUCGGAUCUGCACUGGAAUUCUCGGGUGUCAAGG,-0.692
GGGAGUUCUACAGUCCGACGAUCUCCUGUGCUACACAUCGUAUGUACCGAAUCGGGGAAAAAAGGGAAAAAAGGAAAAAAGGGAAAGUAUUAUGUUACGCCGUUCGGAUCUGCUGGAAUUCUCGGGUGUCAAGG,-0.198
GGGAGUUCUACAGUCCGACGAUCUGGGAGGGGGAUUUUGUUUAUUUUUUUAGCUCAUUUCCAGGGGUGGGAAUUUUUUUUUAAUAUGUGUCAUGAAUAAAGUUGUUUUUGAAAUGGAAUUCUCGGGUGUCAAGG,0.416
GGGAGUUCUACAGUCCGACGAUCUGCGCCAACCUAGGCUUUCUUCUUCCUCUCCUCUUUAUAGGCGGAGUCGAUCUCCCAAAAGGAGAAGGUAGGCCUUCAGUCAUUUGUGAUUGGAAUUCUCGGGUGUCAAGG,-0.369
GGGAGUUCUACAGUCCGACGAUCCAAGUCCUGUGCUACACAUCGUAUGUACCGAAUCGGGGAAAGGGAAAGGAAAGGGAAAGUAUUAUGUUACGCCGUUCGGAUCUGCACUUCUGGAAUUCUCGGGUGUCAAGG,-0.0985
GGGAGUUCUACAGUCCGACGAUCUGGGAGGUGGAUUAUGUUUAUUUUUUUAGCUCAUUUCCAGGGGUGGGAAUUUUUUUUUAAUAUGUGUCAUGAAUAAAGUUGUUUUUGAAAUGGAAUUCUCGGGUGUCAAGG,-0.0304
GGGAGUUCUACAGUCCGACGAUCAAAUGGUAGUGUGCGGAGUUUUUUUUUCUUCCUUCUUUUAAAAAUGGUUGUUUAAGACUUUAACAAUGGGAACCCCUUGUGAGCAUGCUCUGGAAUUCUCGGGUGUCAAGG,-1.33
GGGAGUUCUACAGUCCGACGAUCUUGACGAGGCCGGCCCGGGAGAUGAGACCACCGGCCAGGAAGUCAUUGUCAUUCAGGACACGGGCUUUUCUGUGAAGAUCCUCGCCCCUGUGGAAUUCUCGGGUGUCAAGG,-1.17
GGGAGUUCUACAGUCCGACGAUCUCAAGUCCUGUGCUACACAUCGUAUGUACCGAAUCGGGCCGGGGCCGGGGCCGGAAAGUAUUAUGUUACGCCGUUCGGAUCUGCACUUCCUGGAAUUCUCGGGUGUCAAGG,-0.972

# Block 3 — method: protein binding microarray; form: double-stranded DNA, one strand shown; medium: in vitro; concentration: not given; relative to: not given; direction: higher = stronger binding
# Target: Histone acetyltransferase KAT6A, both winged helices, GST fusion (KAT6A, Homo sapiens, UniProt Q92794, residues 1-181)
# Setting: 8-mer, flanks averaged, mean of 2 arrays, mostly near background
# Construct (chain): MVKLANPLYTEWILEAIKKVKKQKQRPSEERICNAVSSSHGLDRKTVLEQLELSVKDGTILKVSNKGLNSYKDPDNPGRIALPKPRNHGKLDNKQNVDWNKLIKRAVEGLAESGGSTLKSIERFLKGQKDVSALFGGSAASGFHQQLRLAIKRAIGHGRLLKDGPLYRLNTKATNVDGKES
Sequence,E-score
TCATTTAA,-0.198
ACCGGTCT,0.0451
GTAGATAA,0.086
CGTCCAGA,0.104
AGTAGGTC,-0.0398
GCTGGAAA,-0.0122
CGGCTGTC,0.155
AAACCGTT,0.0684
AGCTGAAG,-0.106
AAGAGGTA,-0.14
TAGCCTAA,-0.118
CGTAAGTA,0.0326
CGCTCAAA,0.162
GCACAGAA,0.0286
AACCCCCT,-0.296
CATGATCA,-0.00487
ATTGCCAG,-0.253
CAGAATTA,0.0514
CGGGGGTA,0.0478
AAGATTCG,-0.0796
CGATCTCA,-0.0433
TTCGTCAA,-0.072
GGCCCTGA,-0.154
AGCACAGG,-0.069

# Block 4 — target: CCND3, cyclin fold, Cln2 fusion (human); method: yeast growth competition, sequencing; medium: yeast; setting: weak parent motif; relative to: not given; direction: higher = stronger binding
# Starting sequence: RB1 docking peptide (human); PKPLKKLRFDIEG; partner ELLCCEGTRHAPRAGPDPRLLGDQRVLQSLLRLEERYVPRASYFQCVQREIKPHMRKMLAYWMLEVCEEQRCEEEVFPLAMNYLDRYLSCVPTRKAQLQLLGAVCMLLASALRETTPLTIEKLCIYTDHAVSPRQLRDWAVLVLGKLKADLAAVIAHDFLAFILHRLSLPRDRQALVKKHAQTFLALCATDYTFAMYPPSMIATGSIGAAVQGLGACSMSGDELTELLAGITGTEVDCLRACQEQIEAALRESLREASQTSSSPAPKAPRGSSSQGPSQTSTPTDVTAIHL
Substitution,normalised enrichment score
F9A,0.157
F9Y,0.0725
P1L,0.0374
I11D,0.144
P3K,0.112
L7R,0.142
D10C,0.0899
K2C,0.119
K5Q,0.107
D10H,0.203
P1T,0.079
G13A,0.206
P1A,0.15
R8Q,0.0348
L4S,0.112
I11M,0.062
D10E,-0.0302
P3L,0.158
E12Q,0.112
D10T,0.0341
L7N,0.163
I11W,0.0525

# For quick reference, copied from above (block 4):
Substitution,normalised enrichment score
R8Q,0.0348
L4S,0.112
I11M,0.062
D10E,-0.0302
P3L,0.158
E12Q,0.112
D10T,0.0341
